Experimental data gathered from unrelated publications.
A part holds a random share of what one study measured.

Set 1
Target: Sal-like protein 4, full length isoform A (SALL4, Homo sapiens, UniProt Q9UJQ4, residues 1-1053)
Chain of UniProt Q9UJQ4 (whole entry, looked up): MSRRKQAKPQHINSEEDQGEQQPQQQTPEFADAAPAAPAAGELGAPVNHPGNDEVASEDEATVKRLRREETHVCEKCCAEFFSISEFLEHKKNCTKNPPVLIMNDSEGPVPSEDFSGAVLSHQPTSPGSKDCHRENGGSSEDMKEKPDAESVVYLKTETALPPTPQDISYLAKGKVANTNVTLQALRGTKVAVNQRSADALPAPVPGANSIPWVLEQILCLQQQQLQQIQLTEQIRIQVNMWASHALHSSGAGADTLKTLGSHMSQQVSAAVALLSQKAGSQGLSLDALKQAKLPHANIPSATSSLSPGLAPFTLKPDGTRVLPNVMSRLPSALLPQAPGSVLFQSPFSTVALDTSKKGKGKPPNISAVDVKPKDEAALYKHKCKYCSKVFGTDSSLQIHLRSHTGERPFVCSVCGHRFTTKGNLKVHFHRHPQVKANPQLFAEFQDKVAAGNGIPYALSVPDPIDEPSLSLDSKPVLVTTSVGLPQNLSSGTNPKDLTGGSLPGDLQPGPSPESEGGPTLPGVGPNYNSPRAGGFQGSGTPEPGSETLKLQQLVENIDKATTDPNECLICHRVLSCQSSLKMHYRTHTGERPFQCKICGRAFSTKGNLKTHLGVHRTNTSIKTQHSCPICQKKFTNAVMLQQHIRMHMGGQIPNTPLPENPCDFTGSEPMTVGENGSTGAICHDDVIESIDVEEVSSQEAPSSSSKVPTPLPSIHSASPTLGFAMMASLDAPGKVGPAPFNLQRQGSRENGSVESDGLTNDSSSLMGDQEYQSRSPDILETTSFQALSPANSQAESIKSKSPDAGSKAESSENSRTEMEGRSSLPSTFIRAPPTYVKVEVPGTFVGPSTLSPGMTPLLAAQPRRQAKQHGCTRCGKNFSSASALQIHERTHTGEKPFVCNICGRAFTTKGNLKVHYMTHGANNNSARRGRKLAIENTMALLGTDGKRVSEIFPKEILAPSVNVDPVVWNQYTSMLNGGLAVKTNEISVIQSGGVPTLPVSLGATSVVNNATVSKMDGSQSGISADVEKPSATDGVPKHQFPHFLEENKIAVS
Technique: universal PBM
Molecule type: double-stranded DNA, one strand shown
Medium: in vitro
Tested at: 600 nM
Setting: 8-mer, flanks averaged, mean of replicates
Direction: higher = stronger binding
Sequence	E-score
CAGTGTGC	-0.225
CATACAGG	0.127
AAGTGCAA	0.0742
CATATTGG	0.208
CCAGGATA	0.0293
ATGCGTAG	0.0507
AGACCGTC	-0.151
CTTCTAAC	0.0289
GCGCTCCA	-0.339
GCTTTAGA	0.0835
ACTGGTAT	0.00906
CGACGTCG	-0.191
CGGAACTA	-0.105
AGATTTTA	0.254
CAAGATAC	0.146
CTTGCATC	-0.203
GCTGTCAC	-0.0932

Set 2
Target: RNA binding protein fox-1 homolog 2, RRM domain, GST-SBP tag (RBFOX2, Homo sapiens, UniProt O43251-10, residues 100-194)
Technique: RNA Bind-n-Seq
Molecule type: RNA
Medium: in vitro
Tested at: 365 nM
Setting: natural RNA segment, single round, ends assumed
Baseline: no-protein control
Direction: higher = stronger binding
Constant ends, left off below: GGGAGUUCUACAGUCCGACGAUC … UGGAAUUCUCGGGUGCCAA
Target sequence (chain): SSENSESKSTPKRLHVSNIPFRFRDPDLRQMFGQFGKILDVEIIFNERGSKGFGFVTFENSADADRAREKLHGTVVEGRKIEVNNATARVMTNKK
Sequence	RBNS enrichment (R)
UGUGUCUAGCAGCCUCUAGGAUCUUGUCAGAGCUGCACCUCUCUGUGAACUGGCCAUUCCUUUCGGUGCUGCUGUCCUUUUUGGGGGGGUUCCUGAUUUCUGUAUACAUG	0.331
GCUGCGUAGCUGUGUUGUUUCCUGUUAUGAGCAUUGGAAAUUGGGUUCUCCUUCUGUGAGCAUGGAGUUGAAUGGAAUGCCCACCAGGCCGAGUCUUCUUAGAUGACUGA	10.4
UAAACCUGAUUUUUGUUUUCAAAUAAGAAUGUAAGCAUUUUACUUAAACUGUACUGUUUGCAAGUAGUUUAUAGAAAUUUUGUUUUAAGUCUUCAAAUACCUUGAAAAAA	0.552
AACCGUGACGUCCAAGGAACCAAACCCAGACGCAGAACAAUAAAAUAAAUUCCGUACUCCCCACCCAGGUCCUGCGUGGCGAUGUGUGUCUGGGGCCCUGGGGAAAUAGU	0.492
CGUGGCAUAGAAAAGAACAUGUUCAGAAGCCAUGGGGCCAAGCACAUGCGGGGACGGUCUCAAAUGCGUGAUCAGAGAAUCCUUCACCUUUGCUGAAAAGUGAGCUCAGA	0.3
UUAUUUAUUGAACAUUUGGGGUUUCAGUUGUAAAGCCACAACUACAGGUAGGACCUGAUAUUUCGGCGAGGGACCAUUUCAGACCAAAAUGUACUGUUAAUUUUUUUUAA	0.686
UGACUGCUAGCUUCCCACAGAUCCAUGUCUAGAAUACCAGUGUGCUCAGGAAAAGGAAGUCAUUUCGUGUUUGUUUCCCACCAAAGAAGAAUGAAUCCAGGGUUUUUCUA	0.821
UUGUUUUUGUUUUAAUUUGCACAGCUACACAGAGGAAAUAACUUAGGCACUUUCUGUUUUUUUUAAAAAAAUAAUAAGGUCUCAUGGCUUCAUUUAGAGACCACAGUAAC	0.516

Set 3
Target: TAR DNA-binding protein 43, full length, His tag (TARDBP, Homo sapiens, UniProt Q13148, residues 1-414)
Technique: RNA Bind-n-Seq
Molecule type: RNA
Medium: in vitro
Tested at: 20 nM
Setting: 6-mer, flanks averaged, single round
Added: 150 mM KCl
Baseline: input library
Direction: higher = stronger binding
Sequence	6-mer enrichment (R)
GCUGCG	1.53
AUGUUU	0.774
UAGAAA	0.705
ACGACG	0.928
ACAUGU	0.666
UCCGUA	0.598
AAUUUA	0.647
GGUGUA	1.42
UAAUCG	0.61
CGCGAC	0.84
CGCAGC	0.872
CUUGCC	0.646
AUAAUC	0.607
GACAAU	0.712
ACCUGC	0.647
GCCUCA	0.676
UAGGGA	2.02
CAUAUU	0.599
AAUUUC	0.578
GCUGAC	0.846
GUGCAG	1.55
GGCACC	1.1
AGUCGG	1.36
GCCAUU	0.664
UACUGG	0.915

Set 4
Target: Histone acetyltransferase KAT6A, both winged helices, GST fusion (KAT6A, Homo sapiens, UniProt Q92794, residues 1-181)
Technique: protein binding microarray
Molecule type: double-stranded DNA, one strand shown
Medium: in vitro
Tested at: not given
Setting: 8-mer, flanks averaged, mean of 2 arrays, mostly near background
Baseline: not given
Direction: higher = stronger binding
Residues (chain): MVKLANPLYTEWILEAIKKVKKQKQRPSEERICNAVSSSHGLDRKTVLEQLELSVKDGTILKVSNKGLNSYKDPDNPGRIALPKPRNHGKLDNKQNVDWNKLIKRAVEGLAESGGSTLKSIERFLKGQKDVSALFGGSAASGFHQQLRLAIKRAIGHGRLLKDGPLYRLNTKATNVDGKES
Sequence	E-score
ACTGTTTC	0.0624
CGTATAAG	0.091
AGACTCTC	-0.193
AGCCTCAT	-0.191
ATAAGGCA	-0.263
ACATGTAA	0.00458
CGGTTAAC	0.206
ATCGACAT	0.0264
CAAGGCTA	-0.0257
ATGCCTTC	-0.256
AACTATAT	-0.0414
AGGCCCCG	0.0502
GACGTGTA	-0.00413
TCATGTAA	0.0485
AAGGTAAA	-0.106
CCGTTCCG	0.285
